Assay results gathered from unrelated publications.
Values joined by “and” are separate records of one study, mostly repeats; a detail may differ.
Target: STE20-like serine/threonine-protein kinase (SLK, Homo sapiens, UniProt Q9H2G2)
UniProt Q9H2G2, sequence (whole entry, looked up): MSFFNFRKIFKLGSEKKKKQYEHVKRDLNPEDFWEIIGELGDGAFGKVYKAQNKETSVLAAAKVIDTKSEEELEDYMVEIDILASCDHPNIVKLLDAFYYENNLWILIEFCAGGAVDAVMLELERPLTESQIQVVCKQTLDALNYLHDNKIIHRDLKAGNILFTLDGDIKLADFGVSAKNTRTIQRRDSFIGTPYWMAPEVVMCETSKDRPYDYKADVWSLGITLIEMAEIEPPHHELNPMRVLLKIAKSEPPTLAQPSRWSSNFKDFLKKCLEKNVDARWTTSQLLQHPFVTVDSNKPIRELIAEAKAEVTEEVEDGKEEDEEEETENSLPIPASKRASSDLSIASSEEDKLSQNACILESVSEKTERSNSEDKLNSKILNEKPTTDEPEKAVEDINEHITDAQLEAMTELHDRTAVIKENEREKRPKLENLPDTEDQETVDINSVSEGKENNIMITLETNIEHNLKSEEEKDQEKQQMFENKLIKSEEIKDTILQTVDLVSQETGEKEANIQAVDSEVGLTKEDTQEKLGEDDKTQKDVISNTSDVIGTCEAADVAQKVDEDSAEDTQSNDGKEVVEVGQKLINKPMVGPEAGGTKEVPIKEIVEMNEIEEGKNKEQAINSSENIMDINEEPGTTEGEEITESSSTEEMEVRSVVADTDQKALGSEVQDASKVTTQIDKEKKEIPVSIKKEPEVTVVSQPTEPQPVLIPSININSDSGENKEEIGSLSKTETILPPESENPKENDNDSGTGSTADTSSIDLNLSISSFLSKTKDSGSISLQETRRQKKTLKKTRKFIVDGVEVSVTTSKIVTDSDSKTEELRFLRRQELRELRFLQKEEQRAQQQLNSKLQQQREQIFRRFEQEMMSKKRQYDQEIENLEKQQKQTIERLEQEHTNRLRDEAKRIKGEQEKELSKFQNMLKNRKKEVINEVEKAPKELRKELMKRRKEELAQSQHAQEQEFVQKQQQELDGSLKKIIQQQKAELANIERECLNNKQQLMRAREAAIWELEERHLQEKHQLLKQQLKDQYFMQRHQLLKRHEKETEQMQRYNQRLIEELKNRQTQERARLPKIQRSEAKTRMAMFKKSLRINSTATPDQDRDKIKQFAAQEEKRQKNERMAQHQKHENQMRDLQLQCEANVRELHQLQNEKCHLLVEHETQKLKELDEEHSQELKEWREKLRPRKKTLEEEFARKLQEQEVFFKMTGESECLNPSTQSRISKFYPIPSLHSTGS

With C=CC(=O)N1CCc2ccc(-n3c(=O)ccc4cnc5ccc(-c6cnn(C)c6)cc5c43)cc21 the remaining binding was 100% (KINOMEscan; 1 µM; baseline: DMSO control).
C=CC(=O)N1CCCC(n2c(=O)c3ncccc3n(Cc3ccc(Oc4ccccc4)cc3)c2=O)C1 (stereo not shown) gave a remaining binding of 98% (cell-free assay, competition with immobilised ligand; 1 µM).
N[C@H]1CC[C@H](Nc2nccc(-c3cccnc3Oc3ccc(NC(=O)NC4CC4)c4ccccc34)n2)CC1 — result for “log2 LFQ intensity”: 28 and 27.9 and 27.8 (kinobead competition pulldown; HEK293/HCT116 lysate mixture; 10 µM, 1 h, 4 °C; lower = stronger competition).
For NC(=O)[C@@H](O)C[C@H]1CCc2sc3ncnc(O[C@H]4CC[C@H](N5CCOCC5)CC4)c3c21, the inhibition was 4% (enzyme activity, inhibitor; 10 µM).
The Hill slope of Cc1ccc(C(=O)Nc2ccc(CN3CCN(C)CC3)c(C(F)(F)F)c2)cc1C#Cc1cnc2cccnn12 is reported as 2.69 (target engagement, NanoBRET; human cells).
The inhibition of C=CC(=O)Nc1cccc(-c2cnc3[nH]cc(C(=O)NC(C)(C)C)c3n2)c1 is reported as 9% (kinase activity; 0.1 µM).
With CCN1CCN(Cc2ccc(C(=O)Nc3ccc(C)c(NCc4cnc5[nH]ccc5c4OC)c3)cc2C(F)(F)F)CC1 the remaining binding was 2.1% (binding, competition with immobilised ligand; 1 µM).
The remaining binding of Nc1ncc2c(n1)-c1c([nH]c3ccc(C4=CCOCC4)cc13)CCC2 is reported as 100% (binding, competition with immobilised ligand; 1 µM).
For O=C(Cc1ccc(OCc2ccccc2)cc1)NC1(C(=O)O)CCN(C(=O)c2ccc(-c3cccc(Cl)c3)cc2)CC1, “activity vs control” read 144% (enzyme activity, inhibitor; 10 µM).
Cc1cccc(O[C@H]2CCC[C@@H](C(C)CNCc3ccncc3)C2)c1 (relative stereo) has an inhibition of 0% (enzyme activity, inhibitor; 1 µM).
For Cc1ccc(-c2c(/C=C(\C#N)C(=O)NC(C)C)n(CCCO)c3ncnc(N)c23)cc1, the remaining binding was 91% (cell-free assay, competition with immobilised ligand; 1 µM).
Cc1cnc2nc1Nc1cccc(c1)COC/C=C/COCc1cc(ccc1OCCN1CCOCC1)N2 has a remaining binding of 86% (binding, competition with immobilised ligand; 0.1 µM).
COc1cc(Nc2nccc(-c3cnn4nc(OC)ccc34)n2)cc(C(F)(F)F)c1 gave a remaining binding of 98% (binding, competition with immobilised ligand; 1 µM).
CNC1C[S+]2CC[S+]3CC[S+](C1)[Ru-4]321([N]=C=S)[n]2c3ccc(OC)cc3c3c4c(c5cc(F)c[n+]1c5c32)C(=O)NC4=O (stereo not shown) has a remaining binding of 97% (KinomeScan; 0.1 µM; baseline: untreated).
With CCn1cc(C(=O)O)c(=O)c2c(N)c(F)c(NC3CCCCC3)cc21 the inhibition was -6% (kinase activity; 0.1 µM, with: ATP at Km).
C=CC(=O)Nc1cc(-c2nn(C3CCN(CCNC(=O)[C@H](C)CCC45CC6CC(CC(C6)C4)C5)CC3)c3ncnc(N)c23)ccc1Oc1ccccc1 has an inhibition of 23.7% (inhibitor, KiNativ profiling; biochemical; 2 µM).

A few entries again:
COc1cc(Nc2nccc(-c3cnn4nc(OC)ccc34)n2)cc(C(F)(F)F)c1 gave a remaining binding of 98% (binding, competition with immobilised ligand; 1 µM).
CNC1C[S+]2CC[S+]3CC[S+](C1)[Ru-4]321([N]=C=S)[n]2c3ccc(OC)cc3c3c4c(c5cc(F)c[n+]1c5c32)C(=O)NC4=O (stereo not shown) has a remaining binding of 97% (KinomeScan; 0.1 µM; baseline: untreated).
